Published values from different studies.
Each numbered part is a random draw from the data of one study; scales do not carry over between parts.
Sequence of UniProt Q8N568 (whole entry, looked up): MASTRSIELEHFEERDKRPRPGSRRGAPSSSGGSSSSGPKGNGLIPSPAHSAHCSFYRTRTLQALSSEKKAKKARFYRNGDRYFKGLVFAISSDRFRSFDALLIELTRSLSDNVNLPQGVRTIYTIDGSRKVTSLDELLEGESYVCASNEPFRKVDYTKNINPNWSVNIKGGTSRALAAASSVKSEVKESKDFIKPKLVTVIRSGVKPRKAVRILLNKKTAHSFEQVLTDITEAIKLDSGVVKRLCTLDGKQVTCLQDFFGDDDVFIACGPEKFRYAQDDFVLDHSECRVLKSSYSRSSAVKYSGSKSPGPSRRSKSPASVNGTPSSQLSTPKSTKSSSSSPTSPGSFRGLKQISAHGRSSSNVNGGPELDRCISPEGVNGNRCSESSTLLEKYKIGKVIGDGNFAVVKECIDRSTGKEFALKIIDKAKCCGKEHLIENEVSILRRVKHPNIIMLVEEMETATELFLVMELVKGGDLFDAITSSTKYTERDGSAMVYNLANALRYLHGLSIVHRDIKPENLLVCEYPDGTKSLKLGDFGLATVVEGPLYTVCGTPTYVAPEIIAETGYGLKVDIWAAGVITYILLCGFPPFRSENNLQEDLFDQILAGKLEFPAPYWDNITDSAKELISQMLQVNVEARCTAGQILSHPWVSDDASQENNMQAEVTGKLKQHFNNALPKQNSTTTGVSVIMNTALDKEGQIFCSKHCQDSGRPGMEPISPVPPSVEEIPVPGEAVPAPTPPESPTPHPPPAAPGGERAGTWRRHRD
Sequence of UniProt P51451 (whole entry, looked up): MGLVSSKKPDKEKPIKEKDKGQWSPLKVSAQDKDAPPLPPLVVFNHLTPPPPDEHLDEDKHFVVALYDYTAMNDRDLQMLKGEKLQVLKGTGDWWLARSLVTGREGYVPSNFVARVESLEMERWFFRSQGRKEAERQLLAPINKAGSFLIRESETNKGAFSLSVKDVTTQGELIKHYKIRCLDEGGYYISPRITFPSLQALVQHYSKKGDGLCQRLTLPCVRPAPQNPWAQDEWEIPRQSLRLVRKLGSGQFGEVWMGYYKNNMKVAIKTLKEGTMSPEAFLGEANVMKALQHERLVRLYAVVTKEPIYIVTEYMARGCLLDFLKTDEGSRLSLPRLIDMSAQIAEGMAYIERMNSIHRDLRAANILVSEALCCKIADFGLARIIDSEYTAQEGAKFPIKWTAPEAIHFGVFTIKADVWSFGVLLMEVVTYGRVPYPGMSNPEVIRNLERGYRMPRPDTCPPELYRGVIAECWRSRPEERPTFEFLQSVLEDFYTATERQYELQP
Sequence of UniProt P42681 (whole entry, looked up): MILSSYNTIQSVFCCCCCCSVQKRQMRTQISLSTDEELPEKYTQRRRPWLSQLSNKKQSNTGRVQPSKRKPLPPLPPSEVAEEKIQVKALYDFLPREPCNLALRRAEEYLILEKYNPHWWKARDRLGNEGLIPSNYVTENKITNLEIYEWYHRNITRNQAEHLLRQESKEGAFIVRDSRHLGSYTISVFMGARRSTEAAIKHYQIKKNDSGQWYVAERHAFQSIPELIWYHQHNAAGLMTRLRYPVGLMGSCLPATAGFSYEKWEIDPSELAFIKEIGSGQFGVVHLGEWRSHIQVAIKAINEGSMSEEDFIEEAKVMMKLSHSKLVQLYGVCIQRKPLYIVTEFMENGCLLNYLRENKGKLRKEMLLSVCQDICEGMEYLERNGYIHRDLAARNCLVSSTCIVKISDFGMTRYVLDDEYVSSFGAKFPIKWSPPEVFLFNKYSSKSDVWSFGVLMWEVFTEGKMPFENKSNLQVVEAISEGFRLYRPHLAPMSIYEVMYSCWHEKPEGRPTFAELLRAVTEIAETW
Sequence of UniProt P06493 (whole entry, looked up): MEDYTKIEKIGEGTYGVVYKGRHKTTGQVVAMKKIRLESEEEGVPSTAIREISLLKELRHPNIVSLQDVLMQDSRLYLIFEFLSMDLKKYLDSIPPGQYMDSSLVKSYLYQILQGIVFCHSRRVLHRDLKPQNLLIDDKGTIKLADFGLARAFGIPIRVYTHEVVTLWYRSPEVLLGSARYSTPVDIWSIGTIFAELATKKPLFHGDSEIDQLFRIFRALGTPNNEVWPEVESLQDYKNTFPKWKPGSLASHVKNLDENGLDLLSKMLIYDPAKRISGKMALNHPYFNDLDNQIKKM
Sequence of UniProt Q96J92 (whole entry, looked up): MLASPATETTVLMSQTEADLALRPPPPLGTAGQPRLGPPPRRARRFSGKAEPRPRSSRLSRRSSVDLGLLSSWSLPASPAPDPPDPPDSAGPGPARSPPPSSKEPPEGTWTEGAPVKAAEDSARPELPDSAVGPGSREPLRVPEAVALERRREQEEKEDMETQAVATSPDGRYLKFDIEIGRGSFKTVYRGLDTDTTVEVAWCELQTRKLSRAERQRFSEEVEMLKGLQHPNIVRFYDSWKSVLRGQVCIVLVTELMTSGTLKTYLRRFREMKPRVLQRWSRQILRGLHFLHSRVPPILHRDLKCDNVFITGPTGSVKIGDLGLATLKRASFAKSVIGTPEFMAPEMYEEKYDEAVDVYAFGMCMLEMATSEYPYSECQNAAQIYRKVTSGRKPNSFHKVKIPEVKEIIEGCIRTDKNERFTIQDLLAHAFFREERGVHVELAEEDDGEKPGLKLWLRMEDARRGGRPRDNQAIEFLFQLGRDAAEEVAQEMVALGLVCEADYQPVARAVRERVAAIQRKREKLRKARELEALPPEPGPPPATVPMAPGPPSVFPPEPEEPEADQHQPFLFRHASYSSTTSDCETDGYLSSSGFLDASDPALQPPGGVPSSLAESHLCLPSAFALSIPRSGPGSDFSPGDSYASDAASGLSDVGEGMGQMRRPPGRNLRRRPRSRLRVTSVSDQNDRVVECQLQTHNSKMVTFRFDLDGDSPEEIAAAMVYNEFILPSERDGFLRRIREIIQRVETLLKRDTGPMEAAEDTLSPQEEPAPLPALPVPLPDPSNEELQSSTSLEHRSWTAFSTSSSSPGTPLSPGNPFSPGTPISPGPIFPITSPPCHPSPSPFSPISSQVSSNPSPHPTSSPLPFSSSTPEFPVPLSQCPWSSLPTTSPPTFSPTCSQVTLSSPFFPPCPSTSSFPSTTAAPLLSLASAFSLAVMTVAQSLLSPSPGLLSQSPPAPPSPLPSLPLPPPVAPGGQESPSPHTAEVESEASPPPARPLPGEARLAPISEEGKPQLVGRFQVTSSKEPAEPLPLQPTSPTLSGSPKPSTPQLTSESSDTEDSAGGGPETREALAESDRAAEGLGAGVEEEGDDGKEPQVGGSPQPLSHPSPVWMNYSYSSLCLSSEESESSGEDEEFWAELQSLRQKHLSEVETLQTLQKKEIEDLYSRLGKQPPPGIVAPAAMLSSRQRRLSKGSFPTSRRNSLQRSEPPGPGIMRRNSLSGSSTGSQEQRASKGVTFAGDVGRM
Sequence of UniProt O75914 (whole entry, looked up): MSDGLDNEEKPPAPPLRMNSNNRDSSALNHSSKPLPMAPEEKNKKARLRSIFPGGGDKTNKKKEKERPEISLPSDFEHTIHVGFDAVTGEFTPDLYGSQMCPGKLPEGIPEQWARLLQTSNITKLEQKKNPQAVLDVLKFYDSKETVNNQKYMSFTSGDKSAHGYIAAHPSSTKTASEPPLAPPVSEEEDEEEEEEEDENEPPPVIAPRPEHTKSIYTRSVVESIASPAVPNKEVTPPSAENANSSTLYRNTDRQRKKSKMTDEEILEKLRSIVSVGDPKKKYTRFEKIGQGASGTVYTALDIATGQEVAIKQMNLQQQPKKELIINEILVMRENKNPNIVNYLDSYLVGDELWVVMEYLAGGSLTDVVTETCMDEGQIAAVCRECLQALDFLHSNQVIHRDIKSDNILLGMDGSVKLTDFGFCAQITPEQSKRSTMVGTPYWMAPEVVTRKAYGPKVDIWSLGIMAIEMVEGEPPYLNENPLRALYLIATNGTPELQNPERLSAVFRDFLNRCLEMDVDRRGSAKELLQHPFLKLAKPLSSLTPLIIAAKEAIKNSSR
Sequence of UniProt P51956 (whole entry, looked up): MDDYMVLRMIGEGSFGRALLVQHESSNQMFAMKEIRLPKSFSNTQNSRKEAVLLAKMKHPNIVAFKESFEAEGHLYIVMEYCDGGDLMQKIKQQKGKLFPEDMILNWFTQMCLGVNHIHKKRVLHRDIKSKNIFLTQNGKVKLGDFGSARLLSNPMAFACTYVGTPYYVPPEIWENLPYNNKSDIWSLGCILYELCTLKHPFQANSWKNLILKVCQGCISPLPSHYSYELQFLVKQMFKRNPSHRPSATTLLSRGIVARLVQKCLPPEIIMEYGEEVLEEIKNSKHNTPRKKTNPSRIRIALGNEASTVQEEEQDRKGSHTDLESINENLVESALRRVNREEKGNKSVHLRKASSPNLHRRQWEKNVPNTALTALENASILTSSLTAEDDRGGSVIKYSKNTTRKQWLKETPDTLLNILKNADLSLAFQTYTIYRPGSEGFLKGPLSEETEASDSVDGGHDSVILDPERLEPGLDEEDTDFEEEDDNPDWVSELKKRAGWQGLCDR

Set 1
SMILES: COc1ccc2[nH]c3c4[nH]c5ccc(OC)cc5c4c4c(c3c2c1)C(=O)NC4=O
Method: competitive binding panel
Tested at: 1 µM
Reference: vehicle
Endpoint: remaining binding
LATS1 (Homo sapiens, UniProt O95835): 100%
NEK2 (Homo sapiens, UniProt P51955): 78%
EPHA6 (Homo sapiens, UniProt Q9UF33): 88%
PIK3CD (Homo sapiens, UniProt O00329): 64%
MELK (Homo sapiens, UniProt Q14680): 43%
FGFR3 (Homo sapiens, UniProt P22607): 93%
NLK (Homo sapiens, UniProt Q9UBE8): 52%
DCLK2 (Homo sapiens, UniProt Q8N568); refers to: DCAMKL2: 90%
STK32C (Homo sapiens, UniProt Q86UX6); refers to: YANK3: 84%

Set 2
Target: Calcium/calmodulin-dependent protein kinase type II subunit alpha (CAMK2A, Homo sapiens, UniProt Q9UQM7)
Sequence of UniProt Q9UQM7 (whole entry, looked up): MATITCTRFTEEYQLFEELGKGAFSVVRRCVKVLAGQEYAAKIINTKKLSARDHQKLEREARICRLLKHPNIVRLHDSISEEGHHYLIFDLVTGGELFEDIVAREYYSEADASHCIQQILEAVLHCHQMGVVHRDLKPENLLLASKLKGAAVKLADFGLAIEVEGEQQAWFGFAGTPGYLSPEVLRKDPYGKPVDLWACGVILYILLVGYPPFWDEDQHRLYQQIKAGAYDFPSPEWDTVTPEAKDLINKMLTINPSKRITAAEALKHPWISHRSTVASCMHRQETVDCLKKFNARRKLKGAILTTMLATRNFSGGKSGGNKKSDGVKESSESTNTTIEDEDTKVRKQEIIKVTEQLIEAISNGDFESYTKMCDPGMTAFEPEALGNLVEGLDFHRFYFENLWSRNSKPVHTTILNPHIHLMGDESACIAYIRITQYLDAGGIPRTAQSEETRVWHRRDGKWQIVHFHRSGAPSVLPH
Read-out: enzyme activity
Mode: inhibitor
Tested at: 10 µM
Endpoint: inhibition
CCCCCCCC/C=C\CCCCCCCCCC(=O)O: -39%
CC(=O)N[C@@H](Cc1ccc(O)cc1)C(=O)O: 17%
COc1cc2c(cc1CC=C(C)C)C(=O)C[C@@H](c1ccc(O)cc1)O2: -7%
O=C(O)[C@H](O)Cc1ccccc1: -9%
C[C@H]1C[C@@H]2[C@H]([C@@H](O)C[C@@]3(C)[C@H]2CC[C@]3(O)C(=O)CO)[C@@]2(C)C=CC(=O)C=C12: -6%
O=C(O)CCCCc1ccccc1: 35%
Nc1nc(N)nc(-c2cc(Cl)ccc2Cl)n1: 4%
CCC(=O)O[C@]1(C(=O)CCl)[C@@H](C)C[C@H]2[C@@H]3CCC4=CC(=O)C=C[C@]4(C)[C@@]3(F)[C@@H](O)C[C@@]21C: 3%

Set 3
SMILES: COc1cc2ncnc(N3CCN(C(=O)Nc4ccc(Oc5ccccc5)cc4)CC3)c2cc1OC
Read-out: enzyme activity
Mode: inhibitor
Tested at: 0.5 µM
Reference: control
Endpoint: remaining activity
TXK (Homo sapiens, UniProt P42681): 99.3%
NEK3 (Homo sapiens, UniProt P51956): 100%
MINK1 (Homo sapiens, UniProt Q8N4C8): 99.6%
CAMK4 (Homo sapiens, UniProt Q16566): 102%
KDR (Homo sapiens, UniProt P35968): 82.7%
MARK2 (Homo sapiens, UniProt Q7KZI7): 97.4%
PAK3 (Homo sapiens, UniProt O75914): 98.1%
DCLK2 (Homo sapiens, UniProt Q8N568): 90.6%
TLK2 (Homo sapiens, UniProt Q86UE8): 94.7%
MARK4 (Homo sapiens, UniProt Q96L34): 76.5%
Myosin-IIIb (MYO3B, Homo sapiens, UniProt Q8WXR4): 95.4%
CLK3 (Homo sapiens, UniProt P49761): 88.9%
Cyclin-dependent kinase 1, with cyclin A (CDK1, Homo sapiens, UniProt P06493): 92.3%
MAP2K1 (Homo sapiens, UniProt Q02750): 91.2%
RPS6KA4 (Homo sapiens, UniProt O75676): 96.2%

Set 4
SMILES: CCOC(=O)c1cc2cc(-c3cc(C(=O)NCc4ccc(C(=O)O)cc4)nn3C)ccc2[nH]1
Read-out: cell-free assay
Method: competition with immobilised ligand
Tested at: 0.1 µM
Endpoint: remaining binding
RET (Homo sapiens, UniProt P07949, V804M): 76%
WNK4 (Homo sapiens, UniProt Q96J92): 97%
PIM1 (Homo sapiens, UniProt P11309): 95%
MERTK (Homo sapiens, UniProt Q12866): 100%
Insulin receptor (INSR, Homo sapiens, UniProt P06213): 81%
BLK (Homo sapiens, UniProt P51451): 99%
PKN2 (Homo sapiens, UniProt Q16513): 86%
FGFR2 (Homo sapiens, UniProt P21802): 89%

A few entries again (set 4):
MERTK (Homo sapiens, UniProt Q12866): 100%
Insulin receptor (INSR, Homo sapiens, UniProt P06213): 81%
BLK (Homo sapiens, UniProt P51451): 99%
